Measurements pooled from the literature.
Each numbered part is a random draw from the data of one study; scales do not carry over between parts.

Set 1
Species: mouse
Medium: microsomes or S9
Concentration: 2 µM
Time: 0.5 h
Quantity: remaining compound
CCCN(c1nc2nc(C)c(Cl)c(C)n2n1)S(=O)(=O)c1ccccc1: 1.37%
CN(C(=O)c1cnc(N)nc1-c1ccccc1)C1CCCc2ccccc21 (centres unmarked): 5.6%
O[C@H]1Cc2ccccc2[C@H]1Nc1nc(-c2ccccn2)nc2c1CCNC2: > 100%
CCN(CC)c1ncc(CNc2ccc(F)cn2)s1: 0.0459%

Further values, each from its own experiment
FLT3: Receptor-type tyrosine-protein kinase FLT3 (FLT3, Homo sapiens, UniProt P36888)
N#CC(=C(N)Sc1ccc(N)cc1)c1ccccc1C(F)(F)F  remaining activity (FLT3; enzyme activity, inhibitor; 0.5 µM; baseline: control): 107%
CC(C)C[C@@H]1NC(=O)[C@H](CC(C)C)NC(=O)[C@H](CC(C)C)NC(=O)[C@H](C(C)C)NC(=O)[C@H](C)NC(=O)[C@H](C)NC(=O)[C@H](CCC(=O)N2CCCC2)NC1=O  logD (pH 7.4): -2.36
Cc1cncc2cccc(S(=O)(=O)N3CCCN(C(=O)CN)C[C@@H]3C)c12  remaining activity (FLT3; enzyme activity, inhibitor; 0.5 µM; baseline: control): 90.1%
CC(=O)N[C@@H](Cc1c[nH]c2ccccc12)C(=O)N[C@@H](CCC(=O)C=[N+]=[N-])C(=O)OC(C)C  GI inflammation score (histopathology; mouse C57BL/6 CES1-/-, GI tissue; subcutaneous, 0.26 mg/kg; direction not given): 0

For quick reference, copied from above (set 1):
CN(C(=O)c1cnc(N)nc1-c1ccccc1)C1CCCc2ccccc21 (centres unmarked): 5.6%
